Published values from different studies.
Every numbered part comes from another study and shows a few of its results, in no order. Changes are numbered by the printed parent chain.

Sample 1 — method: RNA Bind-n-Seq; molecule type: RNA; medium: in vitro; tested at: 365 nM; reference: no-protein control; direction: higher = stronger binding
Target: RNA binding protein fox-1 homolog 2, RRM domain, GST-SBP tag (RBFOX2, Homo sapiens, UniProt O43251-10, residues 100-194)
Notes: natural RNA segment, single round, ends assumed
Shared flanks, not repeated: GGGAGUUCUACAGUCCGACGAUC … UGGAAUUCUCGGGUGCCAA
Target sequence (chain): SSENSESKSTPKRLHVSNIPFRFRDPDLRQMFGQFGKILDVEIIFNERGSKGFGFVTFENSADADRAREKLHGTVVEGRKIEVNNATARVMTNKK
For `UUGUUGAUGGAAUACUGUAUCAUAUGCUCAACUCUGAAAACCUUGAACACGGCCAAAAUCCAUAAAGAUUAUAAAAGCAAACUAAGUUGUGAAGCUAUAGUACAUGUAGG`, “RBNS enrichment (R)” read 0.391.
`UCCAAAUCCACUUUUACUGAAAAAUACUGUACAUGUGUAAAAUGUUCAGUUGUUUUUUUGUAAAAUAUAGUAGAACGGUUGUAACUGAUACUGGCCAAAAUCAAUGUUAU` — result for “RBNS enrichment (R)”: 0.356.
Under “RBNS enrichment (R)”, `ACAAAAGAGCCCAAGUUCGCCUCCUACCUGCAUUGCUGACUUGAAUUCACAGUCGCCGAGUCUACCUAGCUUUCUUGGAAGCAGUCUAGCAAAAUUUCUAUUUGUACGUU` is recorded as 0.532.
For `GAAAGUAAGUCUGAUGGCUUGUUGUUUUGCUGUAGUUGUUUUGAAAAGCCGAAAUCAAAUGGUCAAGGCUGCUGAGGCUAAACUCCAGCAGAGUUUGCAGCGCUGAUGUG`, “RBNS enrichment (R)” read 0.443.
`GUGGGUUCAGAGGGCAAUUUCUCUUUUAUGUGUACAUAUGCUAAAUAAACAUAAUUUAAAAAACAUGCGUGUCUGGAACCUAUGUUGAUUGAGUGGCUGGUAUUGAGAGC`: “RBNS enrichment (R)” 1.42.
For `UUGGAUGGCUUCUUUUGUCACCCUGAUCUCCUAUGUUACCAAUGUGUAUCGUCUCCUUCUCCCUAAAGUGUACUUAAUCUUUGCUUUCUUUGCACAAUGUCUUUGGUUGC`, “RBNS enrichment (R)” read 0.63.
`UUAUUUAUUCAGGCUAUACCUACAAUAUGUGAAUCAAACUGUUUAAUGAAUCCUGGGACAUACUGAUGACUAUAAACUGGCCUCUCUGAGUCAUAGAAAAAUGGCCUUAU` — result for “RBNS enrichment (R)”: 0.334.
For `GUAAUAAUAGUGUAAGUUCAGUAAAUCCAGUCCAAAUUCUCAUCACAUGUAUUAUUUGAUACUAAAUUUUCAAUUAUUACUUCAAAAUAAGAGUCUGAGGAUUUCUUCUU`, “RBNS enrichment (R)” read 0.432.

Sample 2 — method: protein-binding microarray; molecule type: double-stranded DNA, one strand shown; medium: in vitro; tested at: 250 nM; notes: 60-bp whole probe; added: salmon DNA 0.4 mg/ml; reference: random background probes; direction: higher = stronger binding; shared flanks, not repeated: GCCTAGCAC … GTCTTGATTCGCTTGACGCTGCTG
Target: Interferon regulatory factor 5, full length, phosphomimetic (IRF5, Homo sapiens, UniProt Q13568-2, residues 1-514, K96S/S451D/S453D/S456D/S462D)
The log fluorescence of `TTAGGTTTCGGTTCGGGTTAGTGCTAG` is reported as 10.4 z-score.
With `GACGGACTGGGGACTGGCGACGTGCTA` the log fluorescence was -1.15 z-score.
For `TAGGCTCTGTGCTTTCCTGATGTGCTA`, the log fluorescence was -0.637 z-score.
`TTAGATTTCGGGTATGGATTAGTGCTA` gave a log fluorescence of 5.48 z-score.
`TTAGTTTTCAGACTGGATTAGTGCTAG` gave a log fluorescence of 1.04 z-score.
With `TTAGGACTTGGGTATCGGTTAGTGCTA` the log fluorescence was 4.22 z-score.
For `CTGTGTACATCTCTCTTAAAGTGCTAG`, the log fluorescence was -0.123 z-score.
For `GACGGACTGGGTCTCCGGACGTGCTAG`, the log fluorescence was -0.668 z-score.
`GACGATATCGGTATCGAGACGTGCTAG` has a log fluorescence of 5.22 z-score.
`GACGGTTACGACTTTCGGGACGTGCTA` has a log fluorescence of 4.85 z-score.
With `GACGGACTGCTTTTCCGGACGTGCTAG` the log fluorescence was -0.375 z-score.
For `GACTGTATCCTTCTCCTGACGTGCTAG`, the log fluorescence was 0.274 z-score.
For `GACGGACTGGGGTTTGGGGACGTGCTA`, the log fluorescence was -0.456 z-score.
For `GACGGTTTTCTACTGCTGACGTGCTAG`, the log fluorescence was 0.717 z-score.
The log fluorescence of `TTAGATTACGGGACTGGATTAGTGCTA` is reported as -0.289 z-score.
`AGACGAATCATATCAAAATTGTGCTAG` has a log fluorescence of 0.586 z-score.

Sample 3 — target: CCNB1, cyclin fold, Cln2 fusion (human); method: yeast growth competition, sequencing; medium: yeast; notes: weak parent motif; reference: not given; direction: higher = stronger binding
Starting sequence: E2F8 docking peptide (human); FVPQRKLEVSTED
Under “normalised enrichment score”, `P3A` is recorded as 0.261.
`V2A` — result for “normalised enrichment score”: 0.465.
`R5K` — result for “normalised enrichment score”: 0.231.
Under “normalised enrichment score”, `T11A` is recorded as 0.165.
`F1A`: “normalised enrichment score” 0.479.
`D13A`: “normalised enrichment score” 1.01.
`R5A`: “normalised enrichment score” 0.188.
Under “normalised enrichment score”, `R5K V9L` is recorded as -0.074.

Mixed results
`PhoQ, residues 284 288 289 292 302 303 ASHLAV` has a fold induction of 1.01 (PhoP, residues 12 14 15 18 19 HLGGL (Escherichia coli, UniProt P23836); Sort-seq, item: YFP reporter; E. coli; PhoQ-PhoP variant library, added: 10 µM Mg2+; reference: high Mg2+ state, higher = stronger signaling).

Some of these lines once more (sample 2):
With `GACGGACTGGGGACTGGCGACGTGCTA` the log fluorescence was -1.15 z-score.
For `TAGGCTCTGTGCTTTCCTGATGTGCTA`, the log fluorescence was -0.637 z-score.
`TTAGATTTCGGGTATGGATTAGTGCTA` gave a log fluorescence of 5.48 z-score.
`TTAGTTTTCAGACTGGATTAGTGCTAG` gave a log fluorescence of 1.04 z-score.
